Assay results pooled from the literature.
A part holds a random share of what one study measured.
Chain of UniProt Q9UEE5 (whole entry, looked up): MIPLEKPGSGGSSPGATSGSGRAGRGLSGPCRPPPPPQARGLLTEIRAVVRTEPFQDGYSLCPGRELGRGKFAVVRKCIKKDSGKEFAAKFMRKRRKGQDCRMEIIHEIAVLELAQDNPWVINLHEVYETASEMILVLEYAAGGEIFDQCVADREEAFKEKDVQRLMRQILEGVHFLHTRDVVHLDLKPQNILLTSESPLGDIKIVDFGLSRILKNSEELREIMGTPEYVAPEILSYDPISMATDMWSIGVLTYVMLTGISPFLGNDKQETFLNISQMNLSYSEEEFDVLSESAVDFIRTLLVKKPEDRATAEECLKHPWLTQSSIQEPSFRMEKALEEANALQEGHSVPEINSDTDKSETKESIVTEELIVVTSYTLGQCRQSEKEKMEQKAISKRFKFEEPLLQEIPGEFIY
Chain of UniProt Q99558 (whole entry, looked up): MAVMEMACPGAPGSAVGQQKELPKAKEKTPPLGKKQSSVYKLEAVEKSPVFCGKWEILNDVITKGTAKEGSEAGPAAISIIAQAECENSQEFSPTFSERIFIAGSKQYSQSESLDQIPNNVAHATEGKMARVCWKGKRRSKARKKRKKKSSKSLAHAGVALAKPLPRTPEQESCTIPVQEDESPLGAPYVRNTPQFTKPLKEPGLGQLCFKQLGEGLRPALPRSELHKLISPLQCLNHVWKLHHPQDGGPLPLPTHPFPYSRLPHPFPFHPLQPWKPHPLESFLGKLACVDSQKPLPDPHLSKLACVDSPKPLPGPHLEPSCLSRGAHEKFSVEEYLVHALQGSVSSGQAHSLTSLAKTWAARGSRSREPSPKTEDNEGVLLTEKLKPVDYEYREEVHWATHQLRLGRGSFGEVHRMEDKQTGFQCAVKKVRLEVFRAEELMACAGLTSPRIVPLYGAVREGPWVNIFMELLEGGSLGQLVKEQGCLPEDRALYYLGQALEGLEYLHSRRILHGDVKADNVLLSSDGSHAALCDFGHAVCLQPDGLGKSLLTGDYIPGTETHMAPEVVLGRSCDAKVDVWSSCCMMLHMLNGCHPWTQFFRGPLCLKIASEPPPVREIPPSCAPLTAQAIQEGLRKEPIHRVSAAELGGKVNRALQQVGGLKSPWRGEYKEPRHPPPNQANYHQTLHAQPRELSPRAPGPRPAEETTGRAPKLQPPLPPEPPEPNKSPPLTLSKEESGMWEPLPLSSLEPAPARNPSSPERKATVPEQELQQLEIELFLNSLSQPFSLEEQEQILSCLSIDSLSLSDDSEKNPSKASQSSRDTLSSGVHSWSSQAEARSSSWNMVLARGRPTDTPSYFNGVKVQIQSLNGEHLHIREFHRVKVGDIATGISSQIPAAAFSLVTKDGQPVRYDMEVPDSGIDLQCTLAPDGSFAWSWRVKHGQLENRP
Chain of UniProt P52333 (whole entry, looked up): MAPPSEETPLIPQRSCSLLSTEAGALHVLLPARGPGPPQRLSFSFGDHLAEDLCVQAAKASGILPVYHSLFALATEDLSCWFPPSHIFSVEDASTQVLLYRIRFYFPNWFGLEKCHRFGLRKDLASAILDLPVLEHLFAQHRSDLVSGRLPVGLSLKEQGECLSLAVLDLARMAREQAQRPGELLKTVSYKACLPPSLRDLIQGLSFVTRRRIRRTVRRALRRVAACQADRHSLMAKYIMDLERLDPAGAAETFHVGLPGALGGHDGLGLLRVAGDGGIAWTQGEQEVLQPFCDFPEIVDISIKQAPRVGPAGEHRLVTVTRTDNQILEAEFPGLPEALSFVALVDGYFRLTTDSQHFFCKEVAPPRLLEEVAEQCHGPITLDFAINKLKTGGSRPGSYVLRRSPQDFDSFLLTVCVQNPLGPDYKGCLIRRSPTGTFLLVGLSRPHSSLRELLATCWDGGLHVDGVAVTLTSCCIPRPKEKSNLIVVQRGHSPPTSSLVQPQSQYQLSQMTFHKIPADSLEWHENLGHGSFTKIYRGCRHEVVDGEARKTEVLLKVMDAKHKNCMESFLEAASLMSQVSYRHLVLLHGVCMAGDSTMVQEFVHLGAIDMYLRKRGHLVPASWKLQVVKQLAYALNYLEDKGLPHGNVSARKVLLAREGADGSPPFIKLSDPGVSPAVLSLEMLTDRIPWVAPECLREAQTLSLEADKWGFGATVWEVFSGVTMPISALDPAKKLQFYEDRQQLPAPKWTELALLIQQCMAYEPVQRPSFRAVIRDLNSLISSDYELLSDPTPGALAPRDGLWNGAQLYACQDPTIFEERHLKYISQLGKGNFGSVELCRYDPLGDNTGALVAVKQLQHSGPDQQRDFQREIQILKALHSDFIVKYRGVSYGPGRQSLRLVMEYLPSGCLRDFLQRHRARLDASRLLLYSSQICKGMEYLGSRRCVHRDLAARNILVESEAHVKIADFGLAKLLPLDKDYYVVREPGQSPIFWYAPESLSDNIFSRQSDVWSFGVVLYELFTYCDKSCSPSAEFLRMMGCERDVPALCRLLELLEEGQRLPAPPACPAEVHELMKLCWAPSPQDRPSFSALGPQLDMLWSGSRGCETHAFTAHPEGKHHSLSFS

Sample 1
Structure (SMILES): Nc1c(C(=O)NCc2ccc(C(=O)NCCCC3CCCCC3)cc2)cnn1-c1ccccc1
Observed: cell-free assay
Technique: competition with immobilised ligand
Concentration: 0.1 µM
| target | remaining binding [%] |
| --- | --- |
| SBK1 (Homo sapiens, UniProt Q52WX2) | 82 |
| STK17A (Homo sapiens, UniProt Q9UEE5) | 100 |
| PHKG1 (Homo sapiens, UniProt Q16816) | 90 |
| MARK1 (Homo sapiens, UniProt Q9P0L2) | 79 |
| PIK3CA (Homo sapiens, UniProt P42336) | 100 |
| Non-receptor tyrosine-protein kinase TYK2, JH1 (TYK2, Homo sapiens, UniProt P29597) | 100 |
| ROS1 (Homo sapiens, UniProt P08922) | 83 |

Sample 2
Compound: Cc1ccc(NC(=O)c2ccc(CN3CCN(C)CC3)cc2)cc1Nc1nc(-c2cccnc2)cs1
Observed: enzyme activity
Mode: inhibitor
Concentration: 0.5 µM
Relative to: control
| target | remaining activity [%] |
| --- | --- |
| JAK3 (Homo sapiens, UniProt P52333) | 93.7 |
| MERTK (Homo sapiens, UniProt Q12866) | 109 |
| CSNK1G2 (Homo sapiens, UniProt P78368) | 92.9 |
| ABL2 (Homo sapiens, UniProt P42684) | 57.7 |
| NEK6 (Homo sapiens, UniProt Q9HC98) | 91.3 |
| ACVR1B (Homo sapiens, UniProt P36896) | 99.8 |
| CSNK1G3 (Homo sapiens, UniProt Q9Y6M4) | 96.8 |
| MST1R (Homo sapiens, UniProt Q04912) | 104 |
| ULK2 (Homo sapiens, UniProt Q8IYT8) | 103 |
| MAP3K5 (Homo sapiens, UniProt Q99683) | 95 |
| EPHA3 (Homo sapiens, UniProt P29320) | 90.3 |
| RPS6KA2 (Homo sapiens, UniProt Q15349) | 99.7 |
| LCK (Homo sapiens, UniProt P06239) | 7.63 |
| MAP3K14 (Homo sapiens, UniProt Q99558) | 91 |
| GRK7 (Homo sapiens, UniProt Q8WTQ7) | 104 |
| TBK1 (Homo sapiens, UniProt Q9UHD2) | 97 |
| ARAF (Homo sapiens, UniProt P10398) | 102 |
| ULK3 (Homo sapiens, UniProt Q6PHR2) | 104 |
| FGFR1 (Homo sapiens, UniProt P11362) | 103 |
| TAOK2 (Homo sapiens, UniProt Q9UL54) | 91.6 |

Sample 3
Structure (SMILES): O=C(Nc1cnn(-c2csc(C(=O)NC3COC3)c2)c1)Nc1ccccc1Cl
Observed: enzyme activity
Concentration: 5 µM
Relative to: untreated control
| target | remaining activity |
| --- | --- |
| RPS6KA6 (Homo sapiens, UniProt Q9UK32) | 102% |
| MAP3K8 (Homo sapiens, UniProt P41279) | 92% |
| STK17A (Homo sapiens, UniProt Q9UEE5) | 98.3% |
| MAPK9 (Homo sapiens, UniProt P45984) | 33.9% |
| GSK3B (Homo sapiens, UniProt P49841) | 94.5% |
| FGFR2 (Homo sapiens, UniProt P21802) | 94.7% |
| VRK2 (Homo sapiens, UniProt Q86Y07) | 103% |
| CHEK1 (Homo sapiens, UniProt O14757) | 97.4% |
| IKBKB (Homo sapiens, UniProt O14920) | 95.2% |

Sample 4
Target: DNA polymerase theta, ATPase domain (POLQ, Homo sapiens, UniProt O75417)
Chain of UniProt O75417 (whole entry, unmodified, looked up): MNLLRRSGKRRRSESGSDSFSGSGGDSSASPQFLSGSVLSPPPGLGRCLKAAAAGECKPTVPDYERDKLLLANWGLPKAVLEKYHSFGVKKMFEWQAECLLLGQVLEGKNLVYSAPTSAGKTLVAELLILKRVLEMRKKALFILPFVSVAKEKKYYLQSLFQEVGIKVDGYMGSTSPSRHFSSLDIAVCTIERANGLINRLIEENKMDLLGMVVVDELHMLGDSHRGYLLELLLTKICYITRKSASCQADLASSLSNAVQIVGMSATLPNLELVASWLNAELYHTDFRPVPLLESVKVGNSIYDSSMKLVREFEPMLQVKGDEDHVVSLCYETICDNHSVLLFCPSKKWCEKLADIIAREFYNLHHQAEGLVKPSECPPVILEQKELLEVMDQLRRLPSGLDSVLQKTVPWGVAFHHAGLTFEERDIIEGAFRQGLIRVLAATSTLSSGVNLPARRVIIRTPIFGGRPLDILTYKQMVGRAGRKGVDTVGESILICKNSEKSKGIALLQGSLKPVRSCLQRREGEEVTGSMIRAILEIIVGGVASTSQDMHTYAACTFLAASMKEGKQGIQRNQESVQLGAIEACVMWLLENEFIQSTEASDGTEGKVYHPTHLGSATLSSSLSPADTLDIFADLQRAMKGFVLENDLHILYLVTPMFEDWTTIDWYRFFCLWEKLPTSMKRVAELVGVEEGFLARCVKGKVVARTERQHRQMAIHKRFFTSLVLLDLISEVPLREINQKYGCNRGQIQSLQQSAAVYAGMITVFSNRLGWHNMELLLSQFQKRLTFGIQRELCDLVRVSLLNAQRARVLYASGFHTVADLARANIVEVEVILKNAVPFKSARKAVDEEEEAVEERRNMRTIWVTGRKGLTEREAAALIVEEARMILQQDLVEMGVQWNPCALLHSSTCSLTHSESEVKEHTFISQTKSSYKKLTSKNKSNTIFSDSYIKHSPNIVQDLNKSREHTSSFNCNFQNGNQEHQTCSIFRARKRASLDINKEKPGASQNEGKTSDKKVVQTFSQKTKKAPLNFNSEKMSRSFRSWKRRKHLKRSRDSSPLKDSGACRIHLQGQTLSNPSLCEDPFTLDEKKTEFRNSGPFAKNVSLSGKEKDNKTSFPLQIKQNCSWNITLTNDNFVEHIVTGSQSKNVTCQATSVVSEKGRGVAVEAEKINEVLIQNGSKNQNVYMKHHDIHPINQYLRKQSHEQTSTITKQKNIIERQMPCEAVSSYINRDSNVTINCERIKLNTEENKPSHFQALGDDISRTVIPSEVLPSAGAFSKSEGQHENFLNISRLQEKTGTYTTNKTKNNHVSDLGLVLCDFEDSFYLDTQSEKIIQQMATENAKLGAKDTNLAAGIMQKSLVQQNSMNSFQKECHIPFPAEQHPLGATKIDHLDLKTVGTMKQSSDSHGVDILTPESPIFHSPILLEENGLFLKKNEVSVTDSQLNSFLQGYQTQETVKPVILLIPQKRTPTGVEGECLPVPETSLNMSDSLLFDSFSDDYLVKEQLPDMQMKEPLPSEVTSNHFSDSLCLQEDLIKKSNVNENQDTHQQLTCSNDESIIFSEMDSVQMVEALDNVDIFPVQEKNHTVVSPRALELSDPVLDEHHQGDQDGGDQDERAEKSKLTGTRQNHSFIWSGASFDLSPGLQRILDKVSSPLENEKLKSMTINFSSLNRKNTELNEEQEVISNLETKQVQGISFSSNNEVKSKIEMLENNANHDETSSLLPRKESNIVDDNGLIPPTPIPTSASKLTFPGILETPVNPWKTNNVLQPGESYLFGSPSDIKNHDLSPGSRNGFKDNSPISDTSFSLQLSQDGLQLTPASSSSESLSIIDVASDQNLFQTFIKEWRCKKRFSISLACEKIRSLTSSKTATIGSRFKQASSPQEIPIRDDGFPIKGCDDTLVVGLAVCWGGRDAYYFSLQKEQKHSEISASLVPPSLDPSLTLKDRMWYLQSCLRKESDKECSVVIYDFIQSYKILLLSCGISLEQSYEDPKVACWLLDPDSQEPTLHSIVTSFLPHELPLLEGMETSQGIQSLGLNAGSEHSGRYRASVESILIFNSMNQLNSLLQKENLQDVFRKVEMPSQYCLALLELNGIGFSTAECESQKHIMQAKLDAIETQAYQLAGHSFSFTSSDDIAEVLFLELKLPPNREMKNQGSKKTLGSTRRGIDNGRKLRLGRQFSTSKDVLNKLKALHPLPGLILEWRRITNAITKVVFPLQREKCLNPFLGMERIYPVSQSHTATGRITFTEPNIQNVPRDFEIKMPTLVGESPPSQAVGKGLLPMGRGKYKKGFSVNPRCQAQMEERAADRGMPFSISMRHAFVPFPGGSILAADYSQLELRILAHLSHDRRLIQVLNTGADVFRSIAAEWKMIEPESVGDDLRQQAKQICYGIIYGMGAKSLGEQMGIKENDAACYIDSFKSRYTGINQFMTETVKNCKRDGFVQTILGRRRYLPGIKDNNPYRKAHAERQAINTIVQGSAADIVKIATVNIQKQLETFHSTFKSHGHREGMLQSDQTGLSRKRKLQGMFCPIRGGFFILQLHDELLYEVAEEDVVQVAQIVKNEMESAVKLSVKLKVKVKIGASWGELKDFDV
Observed: enzyme activity
Mode: inhibitor
Concentration: 77 µM
Relative to: untreated
| SMILES | remaining activity |
| --- | --- |
| O=C(OCC(O)CO)c1ccccc1Nc1ccnc2cc(Cl)ccc12 (stereo not drawn) | 102% |
| Cc1cc(CN2CCN(c3c(Br)cnc4nc(-c5ccc(N6CCN(C)CC6)cc5)[nH]c34)CC2)no1 | 104% |
| COc1ccc(-c2cc(=O)c3c(O)c(OC)c(OC)cc3o2)cc1O | 98.1% |
| CC(=O)N(O)CCCCCNC(=O)CCC(=O)N(O)CCCCCNC(=O)CCC(=O)N(O)CCCCCN | 96.7% |
| CCN(CC)CCCCCCCCOC(=O)c1cc(OC)c(OC)c(OC)c1 | 88.5% |
| Cn1c(Nc2ccc(C(F)(F)F)cc2)nc2cc(Oc3ccnc(-c4ncc(C(F)(F)F)[nH]4)c3)ccc21 | 98.2% |

A few entries again (sample 1):
| target | remaining binding [%] |
| --- | --- |
| PHKG1 (Homo sapiens, UniProt Q16816) | 90 |
| MARK1 (Homo sapiens, UniProt Q9P0L2) | 79 |
